Results from different studies.
Lines come from different studies, so protocols differ.
MTNR1B: Melatonin receptor type 1B (MTNR1B, Homo sapiens, UniProt P49286)
UniProt P49286, sequence (whole entry, looked up): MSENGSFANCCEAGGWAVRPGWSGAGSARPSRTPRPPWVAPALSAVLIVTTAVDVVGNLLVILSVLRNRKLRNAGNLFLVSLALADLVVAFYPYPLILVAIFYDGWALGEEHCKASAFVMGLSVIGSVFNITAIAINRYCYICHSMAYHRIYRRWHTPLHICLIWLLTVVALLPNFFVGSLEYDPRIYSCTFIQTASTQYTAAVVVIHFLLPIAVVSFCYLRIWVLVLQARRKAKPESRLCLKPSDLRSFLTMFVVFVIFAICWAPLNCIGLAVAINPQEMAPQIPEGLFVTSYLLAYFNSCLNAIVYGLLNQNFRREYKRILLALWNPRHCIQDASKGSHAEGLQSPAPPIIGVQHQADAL
UniProt P27361, sequence (whole entry, looked up): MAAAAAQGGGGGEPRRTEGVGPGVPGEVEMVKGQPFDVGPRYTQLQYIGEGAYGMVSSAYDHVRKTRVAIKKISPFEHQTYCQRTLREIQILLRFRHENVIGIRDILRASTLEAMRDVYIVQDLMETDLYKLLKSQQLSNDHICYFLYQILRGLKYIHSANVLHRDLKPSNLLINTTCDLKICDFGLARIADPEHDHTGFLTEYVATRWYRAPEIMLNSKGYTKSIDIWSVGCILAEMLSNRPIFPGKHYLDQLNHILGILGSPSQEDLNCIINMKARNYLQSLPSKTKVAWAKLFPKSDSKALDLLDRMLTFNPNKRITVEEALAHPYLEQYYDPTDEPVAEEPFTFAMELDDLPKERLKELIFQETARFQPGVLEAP
UniProt Q00535, sequence (whole entry, looked up): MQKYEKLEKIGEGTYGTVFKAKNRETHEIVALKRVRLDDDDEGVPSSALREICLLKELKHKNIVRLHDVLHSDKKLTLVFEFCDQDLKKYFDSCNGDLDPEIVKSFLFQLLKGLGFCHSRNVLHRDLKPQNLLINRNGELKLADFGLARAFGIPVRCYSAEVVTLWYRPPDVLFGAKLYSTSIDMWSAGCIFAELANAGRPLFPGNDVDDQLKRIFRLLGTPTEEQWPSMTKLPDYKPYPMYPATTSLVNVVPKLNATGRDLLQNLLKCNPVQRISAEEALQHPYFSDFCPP
UniProt Q62868, sequence (whole entry, looked up): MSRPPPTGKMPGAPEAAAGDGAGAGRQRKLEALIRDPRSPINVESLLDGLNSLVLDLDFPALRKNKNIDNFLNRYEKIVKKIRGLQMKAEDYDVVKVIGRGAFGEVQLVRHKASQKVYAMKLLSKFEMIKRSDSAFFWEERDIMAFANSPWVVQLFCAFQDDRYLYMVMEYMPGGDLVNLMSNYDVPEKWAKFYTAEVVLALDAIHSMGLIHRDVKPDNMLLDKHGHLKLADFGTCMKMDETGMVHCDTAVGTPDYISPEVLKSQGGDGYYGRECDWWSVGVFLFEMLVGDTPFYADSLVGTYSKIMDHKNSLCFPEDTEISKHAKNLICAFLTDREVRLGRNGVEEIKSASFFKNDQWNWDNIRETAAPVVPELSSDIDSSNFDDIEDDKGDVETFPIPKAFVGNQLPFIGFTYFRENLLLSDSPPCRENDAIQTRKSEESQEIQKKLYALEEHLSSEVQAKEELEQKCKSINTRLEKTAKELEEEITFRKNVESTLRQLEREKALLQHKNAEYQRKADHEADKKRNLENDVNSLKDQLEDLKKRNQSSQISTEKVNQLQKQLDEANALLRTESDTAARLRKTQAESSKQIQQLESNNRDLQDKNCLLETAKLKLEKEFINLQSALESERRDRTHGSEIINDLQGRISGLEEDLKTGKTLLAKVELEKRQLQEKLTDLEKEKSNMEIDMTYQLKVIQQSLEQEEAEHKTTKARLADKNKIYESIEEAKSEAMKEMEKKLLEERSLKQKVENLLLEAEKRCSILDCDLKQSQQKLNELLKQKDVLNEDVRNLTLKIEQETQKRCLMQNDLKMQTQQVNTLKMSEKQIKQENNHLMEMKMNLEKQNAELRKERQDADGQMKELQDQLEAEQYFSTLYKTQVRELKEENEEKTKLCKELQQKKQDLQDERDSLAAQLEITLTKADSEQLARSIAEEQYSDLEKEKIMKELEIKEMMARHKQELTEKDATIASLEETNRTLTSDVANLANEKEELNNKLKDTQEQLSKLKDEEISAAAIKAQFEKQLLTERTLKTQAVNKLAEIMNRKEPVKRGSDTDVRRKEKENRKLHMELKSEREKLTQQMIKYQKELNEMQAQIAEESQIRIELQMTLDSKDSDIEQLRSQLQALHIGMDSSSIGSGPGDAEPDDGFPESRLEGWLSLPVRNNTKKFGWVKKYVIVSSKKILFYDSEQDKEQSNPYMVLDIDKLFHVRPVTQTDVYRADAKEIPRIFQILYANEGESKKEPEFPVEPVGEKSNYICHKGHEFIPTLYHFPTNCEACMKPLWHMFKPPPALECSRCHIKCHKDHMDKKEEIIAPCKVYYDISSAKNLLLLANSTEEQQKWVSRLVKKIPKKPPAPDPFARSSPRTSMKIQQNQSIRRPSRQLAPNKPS
UniProt Q10QA5, sequence (whole entry, unmodified, looked up): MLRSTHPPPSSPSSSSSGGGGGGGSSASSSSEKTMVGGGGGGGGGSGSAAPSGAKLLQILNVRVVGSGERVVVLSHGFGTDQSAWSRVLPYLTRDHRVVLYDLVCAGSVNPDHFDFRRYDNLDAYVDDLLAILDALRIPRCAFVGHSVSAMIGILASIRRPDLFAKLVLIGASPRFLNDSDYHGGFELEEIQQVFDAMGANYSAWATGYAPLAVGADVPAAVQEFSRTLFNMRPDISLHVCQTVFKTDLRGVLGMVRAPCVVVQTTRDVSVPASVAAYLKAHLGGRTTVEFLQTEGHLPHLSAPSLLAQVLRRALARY
UniProt Q9NTG7, sequence (whole entry, looked up): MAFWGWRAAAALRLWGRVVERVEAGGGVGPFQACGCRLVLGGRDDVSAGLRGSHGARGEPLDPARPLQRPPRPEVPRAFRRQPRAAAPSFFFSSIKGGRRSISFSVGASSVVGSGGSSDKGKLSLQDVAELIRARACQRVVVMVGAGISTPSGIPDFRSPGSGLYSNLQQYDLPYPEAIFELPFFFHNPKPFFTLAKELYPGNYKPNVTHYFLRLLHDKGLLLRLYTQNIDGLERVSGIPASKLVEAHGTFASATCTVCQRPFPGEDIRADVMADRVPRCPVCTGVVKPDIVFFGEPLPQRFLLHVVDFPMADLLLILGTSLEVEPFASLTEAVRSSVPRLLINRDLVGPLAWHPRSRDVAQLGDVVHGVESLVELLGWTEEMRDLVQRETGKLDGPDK
UniProt P22455, sequence (whole entry, looked up): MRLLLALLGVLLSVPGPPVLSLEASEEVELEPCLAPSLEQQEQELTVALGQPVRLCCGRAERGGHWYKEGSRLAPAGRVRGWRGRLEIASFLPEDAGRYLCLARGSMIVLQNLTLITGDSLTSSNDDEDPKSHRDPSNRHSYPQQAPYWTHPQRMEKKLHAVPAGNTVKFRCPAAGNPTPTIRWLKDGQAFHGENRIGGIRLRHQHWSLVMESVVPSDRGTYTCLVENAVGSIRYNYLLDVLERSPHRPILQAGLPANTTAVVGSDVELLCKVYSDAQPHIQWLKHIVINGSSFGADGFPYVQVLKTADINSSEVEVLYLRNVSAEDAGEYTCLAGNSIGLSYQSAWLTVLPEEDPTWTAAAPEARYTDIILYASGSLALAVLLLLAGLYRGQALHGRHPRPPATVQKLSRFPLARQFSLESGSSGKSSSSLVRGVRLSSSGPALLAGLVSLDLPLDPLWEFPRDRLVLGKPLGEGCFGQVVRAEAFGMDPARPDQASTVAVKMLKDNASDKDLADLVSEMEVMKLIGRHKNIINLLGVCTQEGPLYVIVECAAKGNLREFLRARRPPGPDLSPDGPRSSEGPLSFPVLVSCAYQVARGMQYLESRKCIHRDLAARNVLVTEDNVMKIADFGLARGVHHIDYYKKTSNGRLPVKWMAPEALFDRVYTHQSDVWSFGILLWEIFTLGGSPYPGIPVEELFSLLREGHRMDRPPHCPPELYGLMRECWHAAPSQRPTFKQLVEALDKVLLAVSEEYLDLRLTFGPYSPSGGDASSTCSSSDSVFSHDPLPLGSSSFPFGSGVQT
UniProt P51812, sequence (whole entry, looked up): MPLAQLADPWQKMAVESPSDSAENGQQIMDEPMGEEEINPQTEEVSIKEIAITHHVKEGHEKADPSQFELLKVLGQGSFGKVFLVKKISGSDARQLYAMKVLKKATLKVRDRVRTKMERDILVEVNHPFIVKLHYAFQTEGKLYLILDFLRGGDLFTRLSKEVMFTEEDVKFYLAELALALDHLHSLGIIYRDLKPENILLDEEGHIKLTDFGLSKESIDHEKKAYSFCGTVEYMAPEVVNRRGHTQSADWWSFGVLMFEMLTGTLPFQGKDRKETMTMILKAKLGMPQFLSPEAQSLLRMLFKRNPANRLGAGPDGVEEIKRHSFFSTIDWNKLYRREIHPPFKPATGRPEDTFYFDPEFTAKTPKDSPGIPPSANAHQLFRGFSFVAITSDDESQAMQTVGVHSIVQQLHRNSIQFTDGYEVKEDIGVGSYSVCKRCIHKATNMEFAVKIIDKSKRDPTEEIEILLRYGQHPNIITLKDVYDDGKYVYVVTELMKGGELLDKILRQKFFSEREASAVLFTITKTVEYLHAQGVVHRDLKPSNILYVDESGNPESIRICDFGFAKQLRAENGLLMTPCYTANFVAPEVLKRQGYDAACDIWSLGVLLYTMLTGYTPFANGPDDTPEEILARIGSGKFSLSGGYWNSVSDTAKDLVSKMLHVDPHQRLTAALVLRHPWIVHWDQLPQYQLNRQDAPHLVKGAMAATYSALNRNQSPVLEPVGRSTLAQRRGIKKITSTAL

SMILES | tested on | test | system | setting | quantity | result
CC[C@H](C)[C@H](NC(=O)[C@H](CCC(N)=O)NC(=O)[C@@H](NC(=O)[C@H](CCSC)NC(=O)[C@H](CCCCN)NC(=O)[C@H](CO)NC(=O)[C@@H](NC(=O)[C@H](CCSC)NC(=O)[C@H](CC(C)C)NC(=O)[C@H](CC(N)=O)NC(=O)[C@@H](NC(=O)[C@@H](NC(=O)[C@H](CO)NC(=O)[C@H](CC(C)C)NC(=O)[C@H](C)NC(=O)[C@H](CCCNC(=N)N)NC(=O)[C@H](CCC(=O)O)NC(=O)[C@H](Cc1ccc(O)cc1)NC(=O)[C@H](Cc1ccccc1)NC(=O)[C@H](C)NC(=O)[C@H](CC(N)=O)NC(=O)[C@@H](N)CCCCN)[C@@H](C)CC)[C@@H](C)CC)[C@@H](C)O)C(C)C)C(=O)N[C@@H](CC(N)=O)C(=O)N[C@H](C(=O)O)C(C)C | Cyclin-dependent kinase 5, with p35 (CDK5, Homo sapiens, UniProt Q00535) | enzyme activity, inhibitor, radiometric | – | 100 µM, 20 min | remaining activity | 43%
O=c1nc(N2CCN(CC3CCCCC3)CC2)sc2c([N+](=O)[O-])cc(C(F)(F)F)cc12 | – | – | CD-1 mouse, plasma | oral, 100 mg/kg, 4.98 min | concentration | 245 ng/mL
FC(F)(F)Oc1cccc(-c2cnc3ccc(-c4ccncc4)nn23)c1 | Rho-associated protein kinase 2 (Rock2, Rattus norvegicus, UniProt Q62868) | enzyme activity, inhibitor, radiometric | – | 1 µM | activity vs control | 102%
Cc1cccc(N(O)N=Nc2ccc(S(=O)(=O)Nc3nccs3)cc2)c1 | – | DPPH scavenging, absorbance | – | 180 µg/mL | inhibition | 32.9%
CC(=O)Oc1cccc(C(=O)NCc2cc(O)c(O)c(Br)c2)c1C | Replicase polyprotein 1ab, papain-like protease (rep, Porcine epidemic diarrhea virus, UniProt P0C6Y4) | enzyme activity, inhibitor, FRET | – | 10 µM | inhibition | 105%
O=C(Nc1c[nH]nc1C(=O)NC1CCNCC1)c1cc(F)cc(F)c1 | Cyclin-dependent kinase-like 5 (CDKL5, Homo sapiens, UniProt O76039, T169D/Y171E) | thermal stability, DSF | – | – | ΔTm | > 6 °C
O=C(NCCc1cccc2ccccc12)C1CCC1 | MTNR1B | β-arrestin recruitment, agonist | MT2 | 90 min | Emax | 20%
C=CC(=O)N1CCC(COCC(=O)N2CCN(c3nc(-c4cnc(N)nc4C(F)F)nc(N4CCOC[C@@H]4C)n3)CC2)CC1 | Serine/threonine-protein kinase WNK2 (WNK2, Homo sapiens, UniProt Q9Y3S1) | binding, competition with immobilised ligand | – | 1 µM | remaining binding | 69%
CNc1ncc2c(/C=C/C(=O)N3CCC(OC)CC3)nn(Cc3cccc(C(F)(F)F)c3)c2n1 | MAP kinase-activated protein kinase 2 (MAPKAPK2, Homo sapiens, UniProt P49137) | enzyme activity, inhibitor, radiometric | – | 1 µM | remaining activity | 112%
CN1CC(Oc2cnc(C#N)cc2-c2ccn3nc(NC(=O)C4CC4)cc3c2)C1 | Myosin light chain kinase 2, skeletal/cardiac muscle (MYLK2, Homo sapiens, UniProt Q9H1R3) | enzyme activity, inhibitor | – | 1 µM | inhibition | 0%
CC(=NNC(=O)c1ccncc1)c1ccc(Nc2nnc(-c3ccc(Cl)cc3)c3ccccc23)cc1 | HepG2 | cell growth or viability, MTT | – | 78 nM, 24 h | viability | 96.8%
CC(=O)/C=C/C=C(C)/C=C/C1=C(C)CC(O)CC1(C)C (stereo in doubt) | D14 (Oryza sativa, UniProt Q10QA5) | thermal stability, DSF | – | 50 µM | ΔTm | 6.92 °C
COc1cc(-c2cncc3c2CN(C)Cc2cc(N4CCNCC4)ccc2-3)cc(OC)c1OC | Fibroblast growth factor receptor 4 (FGFR4, Homo sapiens, UniProt P22455) | enzyme activity, inhibitor | – | 1 µM | remaining activity | 111%
CC[C@H](C)[C@H](NC(=O)[C@H](CCC(N)=O)NC(=O)[C@H](CC(C)C)NC(=O)[C@H](CCSC)NC(=O)[C@H](CCCCN)NC(=O)[C@H](CO)NC(=O)[C@H](CO)NC(=O)[C@H](CCSC)NC(=O)[C@H](CC(C)C)NC(=O)[C@H](CC(N)=O)NC(=O)[C@@H](NC(=O)[C@@H](NC(=O)[C@H](CO)NC(=O)[C@H](CC(C)C)NC(=O)[C@H](CS)NC(=O)[C@H](CCCNC(=N)N)NC(=O)[C@H](CC(=O)O)NC(=O)[C@H](Cc1c[nH]c2ccccc12)NC(=O)[C@H](Cc1ccccc1)NC(=O)[C@H](C)NC(=O)[C@H](CCC(=O)O)NC(=O)[C@@H](N)CCCCN)C(C)C)[C@@H](C)CC)C(=O)N[C@@H](CC(N)=O)C(=O)N[C@@H](C)C(=O)O | Mitogen-activated protein kinase 3 (MAPK3, Homo sapiens, UniProt P27361) | enzyme activity, inhibitor, radiometric | – | 1 µM, 20 min | remaining activity | 100%
N=c1c[n+](N2CCOCC2)[n-]o1 | NAD-dependent protein deacetylase sirtuin-3, mitochondrial (SIRT3, Homo sapiens, UniProt Q9NTG7) | enzyme activity, inhibitor | – | – | KI (inactivation) | 7 µM
COc1ccnn2ncc(-c3ccnc(N(C)C)n3)c12 | Serine/threonine-protein kinase SIK1 (SIK1, Homo sapiens, UniProt P57059) | binding | – | 1 µM | remaining binding | 100%
Nc1ncnc2occ(-c3ccc(NC(=O)Nc4cc(C(F)(F)F)ccc4F)cc3)c12 | Mitogen-activated protein kinase kinase kinase 19 (MAP3K19, Homo sapiens, UniProt Q56UN5) | cell-free assay, inhibitor | – | 20 µM | remaining signal | 0.2%
CC[C@H]1OC(=O)[C@H](C)[C@@H](O[C@H]2C[C@@](C)(OC)[C@@H](O)[C@H](C)O2)[C@H](C)[C@@H](O[C@@H]2O[C@H](C)C[C@H](N(C)C)[C@H]2O)[C@](C)(OC)C[C@@H](C)C(=O)[C@H](C)[C@@H](O)[C@]1(C)O | Helicobacter pylori | microbial growth, broth dilution | – | 1.95 µg/mL | inhibition | 100%
COc1cc(I)c2[nH]cc(CCNC(C)=O)c2c1 | MTNR1B | cAMP, agonist, TR-FRET | CHO-K1 | 20 min | Emax | 102%
COc1cccc(-c2n[nH]c(SCc3ccccn3)n2)c1OC | – | – | male Sprague-Dawley rat, plasma | intravenous, 1 mg/kg, 10 min, single dose | concentration | 3280 ng/mL
Cc1ccc(N(O)N=Nc2ccc(S(=O)(=O)Nc3onc(C)c3C)cc2)cc1 | – | DPPH scavenging, absorbance | – | 120 µg/mL | inhibition | 10.9%
COc1ccc2ncn(CCNC(C)=O)c2c1 | MTNR1B | cAMP, agonist, TR-FRET | CHO-K1 | 20 min | Emax | 60%
Cc1cc([C@@H](C)Nc2ccccc2C(=O)O)c2nc(N3CCC(F)(F)CC3)c(C#N)c(=O)n2c1 | Ribosomal protein S6 kinase alpha-3, N-terminal kinase domain (RPS6KA3, Homo sapiens, UniProt P51812) | binding, competition with immobilised ligand | – | 10 µM | remaining binding | 90%
CCCCC(=O)Nc1ccc(-c2ccc3ncn(CCC)c(=O)c3c2)cn1 | Cyclin-dependent kinase 15 (CDK15, Homo sapiens, UniProt Q96Q40) | binding, competition with immobilised ligand | – | 0.5 µM | remaining binding | 100%
CC(=NNC(=O)c1ccccc1O)c1ccc(Nc2nnc(-c3ccc(Cl)cc3)c3ccccc23)cc1 | HepG2 | cell growth or viability, MTT | – | 0.625 µM, 24 h | viability | 99.9%
NC/C(=C\F)COc1cccc(Cn2c(=S)[nH]c(=O)c3[nH]cnc32)c1 | Adenosine receptor A2a (ADORA2A, Homo sapiens, UniProt P29274) | ligand displacement, radioligand | – | 10 µM | inhibition | < 50%
C1=C/COCc2cc(ccc2OCCN2CCCC2)Nc2nccc(n2)-c2cccc(c2)COC/1 | Phosphatidylinositol 4,5-bisphosphate 3-kinase catalytic subunit alpha isoform (PIK3CA, Homo sapiens, UniProt P42336, H1047L) | binding | – | 0.1 µM | remaining binding | 45%
Nc1ccn([C@@H]2O[C@H](CO)[C@@H](O)C2(F)F)c(=O)n1 | HEK293 | cell growth or viability, MTT | – | 0.15625 µg/mL, 48 h | viability | 90.5%

Repeated from above:
SMILES | tested on | test | system | setting | quantity | result
COc1ccnn2ncc(-c3ccnc(N(C)C)n3)c12 | Serine/threonine-protein kinase SIK1 (SIK1, Homo sapiens, UniProt P57059) | binding | – | 1 µM | remaining binding | 100%
